# Measured values gathered from unrelated publications.
# A part holds a random share of what one study measured. Values joined by “and” are separate records of one study, mostly repeats; a detail may differ. Changes are numbered by the printed parent chain.
# UniProt Q9H2K8, sequence (whole entry, looked up): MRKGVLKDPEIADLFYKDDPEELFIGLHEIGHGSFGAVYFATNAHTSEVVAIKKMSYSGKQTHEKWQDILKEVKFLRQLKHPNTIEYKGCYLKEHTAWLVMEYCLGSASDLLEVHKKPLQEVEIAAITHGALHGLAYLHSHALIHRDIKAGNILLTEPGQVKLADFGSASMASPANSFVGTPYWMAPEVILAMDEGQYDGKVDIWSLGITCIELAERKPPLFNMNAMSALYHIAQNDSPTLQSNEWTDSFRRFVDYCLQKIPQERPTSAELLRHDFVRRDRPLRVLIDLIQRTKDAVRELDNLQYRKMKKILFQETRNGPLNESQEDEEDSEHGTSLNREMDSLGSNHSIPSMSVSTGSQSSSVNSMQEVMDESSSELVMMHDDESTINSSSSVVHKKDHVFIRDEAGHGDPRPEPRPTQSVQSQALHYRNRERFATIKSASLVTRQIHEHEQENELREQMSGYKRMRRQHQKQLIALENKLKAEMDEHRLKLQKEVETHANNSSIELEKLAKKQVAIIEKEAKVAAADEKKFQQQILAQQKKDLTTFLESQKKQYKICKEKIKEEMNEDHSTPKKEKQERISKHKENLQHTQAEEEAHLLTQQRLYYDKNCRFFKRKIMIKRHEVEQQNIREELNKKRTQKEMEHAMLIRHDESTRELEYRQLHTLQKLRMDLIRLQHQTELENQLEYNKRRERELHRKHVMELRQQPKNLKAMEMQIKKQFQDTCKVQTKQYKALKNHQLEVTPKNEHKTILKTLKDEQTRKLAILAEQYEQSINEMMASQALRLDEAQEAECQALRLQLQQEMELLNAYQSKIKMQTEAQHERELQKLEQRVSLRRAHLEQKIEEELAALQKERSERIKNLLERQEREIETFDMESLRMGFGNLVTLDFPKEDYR
# UniProt P51817, sequence (whole entry, looked up): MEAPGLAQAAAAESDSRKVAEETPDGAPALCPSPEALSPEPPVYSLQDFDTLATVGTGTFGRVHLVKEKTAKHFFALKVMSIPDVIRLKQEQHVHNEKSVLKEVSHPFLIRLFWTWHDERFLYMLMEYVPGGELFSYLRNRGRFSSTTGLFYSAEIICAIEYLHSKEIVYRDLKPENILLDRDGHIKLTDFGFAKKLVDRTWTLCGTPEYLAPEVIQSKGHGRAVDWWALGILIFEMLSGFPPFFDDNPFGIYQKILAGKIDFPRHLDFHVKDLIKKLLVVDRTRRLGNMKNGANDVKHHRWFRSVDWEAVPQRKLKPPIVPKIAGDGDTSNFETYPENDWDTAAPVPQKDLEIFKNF
# UniProt Q8NG66, sequence (whole entry, looked up): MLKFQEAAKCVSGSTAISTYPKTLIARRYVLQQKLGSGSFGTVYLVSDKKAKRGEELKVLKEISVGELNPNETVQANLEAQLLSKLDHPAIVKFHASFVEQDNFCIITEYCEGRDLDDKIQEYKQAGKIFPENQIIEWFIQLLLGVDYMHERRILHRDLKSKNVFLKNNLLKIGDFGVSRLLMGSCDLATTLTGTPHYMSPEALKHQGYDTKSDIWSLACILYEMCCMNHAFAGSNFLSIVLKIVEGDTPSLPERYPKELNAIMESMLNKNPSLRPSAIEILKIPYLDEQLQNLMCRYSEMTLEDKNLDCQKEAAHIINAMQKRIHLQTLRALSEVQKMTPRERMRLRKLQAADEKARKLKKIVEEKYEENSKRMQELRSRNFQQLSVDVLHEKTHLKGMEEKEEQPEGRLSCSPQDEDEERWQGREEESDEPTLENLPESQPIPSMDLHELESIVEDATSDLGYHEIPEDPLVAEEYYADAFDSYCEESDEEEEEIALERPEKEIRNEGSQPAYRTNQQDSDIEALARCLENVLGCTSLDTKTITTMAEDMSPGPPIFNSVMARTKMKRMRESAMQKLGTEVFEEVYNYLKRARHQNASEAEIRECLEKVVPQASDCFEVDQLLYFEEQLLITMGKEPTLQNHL
# UniProt Q96GD4, sequence (whole entry, looked up): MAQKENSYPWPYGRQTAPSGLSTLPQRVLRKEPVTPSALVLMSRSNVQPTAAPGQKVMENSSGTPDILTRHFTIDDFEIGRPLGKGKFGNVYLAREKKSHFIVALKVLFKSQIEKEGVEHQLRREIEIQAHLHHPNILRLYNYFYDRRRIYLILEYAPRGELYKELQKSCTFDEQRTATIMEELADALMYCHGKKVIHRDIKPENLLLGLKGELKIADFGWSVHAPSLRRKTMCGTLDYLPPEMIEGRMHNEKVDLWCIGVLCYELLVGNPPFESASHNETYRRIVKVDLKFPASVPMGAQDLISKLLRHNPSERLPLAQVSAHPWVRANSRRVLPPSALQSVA
# UniProt P06241, sequence (whole entry, looked up): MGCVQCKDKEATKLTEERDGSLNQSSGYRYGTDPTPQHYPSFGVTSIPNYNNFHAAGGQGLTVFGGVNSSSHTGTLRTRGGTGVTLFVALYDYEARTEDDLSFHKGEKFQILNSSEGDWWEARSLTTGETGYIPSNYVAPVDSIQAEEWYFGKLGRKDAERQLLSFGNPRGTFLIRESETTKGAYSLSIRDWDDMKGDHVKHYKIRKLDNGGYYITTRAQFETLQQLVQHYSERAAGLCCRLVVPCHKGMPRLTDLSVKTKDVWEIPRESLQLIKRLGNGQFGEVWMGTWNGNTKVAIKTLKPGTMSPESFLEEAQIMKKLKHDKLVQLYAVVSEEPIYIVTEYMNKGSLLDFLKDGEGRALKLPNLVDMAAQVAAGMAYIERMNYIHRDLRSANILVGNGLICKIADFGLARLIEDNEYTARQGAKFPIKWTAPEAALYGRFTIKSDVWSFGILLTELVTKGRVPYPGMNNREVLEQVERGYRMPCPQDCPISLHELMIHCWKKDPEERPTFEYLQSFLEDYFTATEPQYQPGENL
# UniProt Q86Z02, sequence (whole entry, looked up): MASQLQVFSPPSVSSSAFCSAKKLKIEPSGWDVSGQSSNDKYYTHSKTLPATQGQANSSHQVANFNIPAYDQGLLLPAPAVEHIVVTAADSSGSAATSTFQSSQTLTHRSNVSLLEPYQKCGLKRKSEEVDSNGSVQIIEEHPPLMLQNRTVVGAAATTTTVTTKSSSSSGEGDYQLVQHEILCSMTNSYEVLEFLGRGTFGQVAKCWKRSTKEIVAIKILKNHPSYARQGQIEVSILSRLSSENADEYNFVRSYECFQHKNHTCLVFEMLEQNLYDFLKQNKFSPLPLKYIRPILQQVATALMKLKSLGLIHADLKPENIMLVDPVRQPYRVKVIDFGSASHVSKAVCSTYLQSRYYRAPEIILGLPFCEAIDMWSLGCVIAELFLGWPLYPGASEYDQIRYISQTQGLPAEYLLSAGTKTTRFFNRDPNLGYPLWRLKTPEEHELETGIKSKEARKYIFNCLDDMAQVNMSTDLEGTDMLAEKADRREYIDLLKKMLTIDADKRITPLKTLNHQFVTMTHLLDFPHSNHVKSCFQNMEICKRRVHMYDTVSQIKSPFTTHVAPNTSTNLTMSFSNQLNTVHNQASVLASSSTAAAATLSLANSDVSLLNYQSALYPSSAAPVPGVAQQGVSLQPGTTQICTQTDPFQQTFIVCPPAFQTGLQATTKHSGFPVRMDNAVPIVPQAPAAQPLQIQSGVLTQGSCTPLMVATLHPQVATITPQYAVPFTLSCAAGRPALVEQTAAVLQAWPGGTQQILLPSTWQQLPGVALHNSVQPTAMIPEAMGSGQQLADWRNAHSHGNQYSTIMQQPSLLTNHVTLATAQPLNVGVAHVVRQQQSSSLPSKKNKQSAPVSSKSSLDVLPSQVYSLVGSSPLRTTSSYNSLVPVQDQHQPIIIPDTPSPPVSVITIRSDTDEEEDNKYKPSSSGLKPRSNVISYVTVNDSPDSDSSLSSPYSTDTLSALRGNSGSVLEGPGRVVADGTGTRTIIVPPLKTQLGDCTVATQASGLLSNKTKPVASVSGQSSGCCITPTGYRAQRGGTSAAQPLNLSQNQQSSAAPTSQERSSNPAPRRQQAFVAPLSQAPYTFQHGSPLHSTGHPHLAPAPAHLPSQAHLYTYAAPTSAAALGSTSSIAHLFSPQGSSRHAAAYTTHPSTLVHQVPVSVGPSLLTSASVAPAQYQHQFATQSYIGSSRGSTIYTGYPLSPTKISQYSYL
# UniProt P42679, sequence (whole entry, looked up): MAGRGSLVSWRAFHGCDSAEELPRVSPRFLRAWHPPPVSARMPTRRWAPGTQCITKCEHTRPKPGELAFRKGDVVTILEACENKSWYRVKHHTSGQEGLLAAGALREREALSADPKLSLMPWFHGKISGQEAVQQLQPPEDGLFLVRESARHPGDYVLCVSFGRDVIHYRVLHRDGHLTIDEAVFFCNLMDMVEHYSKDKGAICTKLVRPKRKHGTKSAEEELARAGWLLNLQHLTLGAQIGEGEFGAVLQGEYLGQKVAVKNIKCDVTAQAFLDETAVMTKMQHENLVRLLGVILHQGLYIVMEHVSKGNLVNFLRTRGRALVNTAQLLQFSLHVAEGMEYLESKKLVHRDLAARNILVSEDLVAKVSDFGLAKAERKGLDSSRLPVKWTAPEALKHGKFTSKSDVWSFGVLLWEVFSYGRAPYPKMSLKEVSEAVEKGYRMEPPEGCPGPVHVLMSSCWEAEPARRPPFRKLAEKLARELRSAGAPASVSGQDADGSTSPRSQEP
# UniProt P36896, sequence (whole entry, looked up): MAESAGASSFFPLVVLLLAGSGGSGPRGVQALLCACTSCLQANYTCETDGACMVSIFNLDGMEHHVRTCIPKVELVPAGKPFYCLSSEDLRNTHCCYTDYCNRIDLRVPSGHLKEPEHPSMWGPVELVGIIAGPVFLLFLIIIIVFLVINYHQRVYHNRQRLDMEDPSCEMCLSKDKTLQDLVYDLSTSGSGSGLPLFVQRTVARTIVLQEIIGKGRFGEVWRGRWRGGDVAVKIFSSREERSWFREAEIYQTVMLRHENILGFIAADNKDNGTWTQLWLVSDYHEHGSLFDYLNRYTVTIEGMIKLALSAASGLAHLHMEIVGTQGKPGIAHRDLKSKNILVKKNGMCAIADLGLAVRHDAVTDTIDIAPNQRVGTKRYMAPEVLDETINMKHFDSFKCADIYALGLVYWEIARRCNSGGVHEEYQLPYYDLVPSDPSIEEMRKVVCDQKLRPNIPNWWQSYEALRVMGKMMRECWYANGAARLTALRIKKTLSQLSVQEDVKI

# Series 1 — effect on: cell-free assay; technique: competition with immobilised ligand; concentration: 1 µM
# Compound: COc1ccc2c(c1)O[C@H](c1ccc(OC)c(OC)c1)C[C@@H]2NC(=O)C1(c2ccc3c(c2)OC(F)(F)O3)CC1
target,remaining binding [%]
"PIK3CA (Homo sapiens, UniProt P42336)",82
"IRAK3 (Homo sapiens, UniProt Q9Y616)",86
"CSNK2A1 (Homo sapiens, UniProt P68400)",100
"ERN1 (Homo sapiens, UniProt O75460)",100
"ACVR1B (Homo sapiens, UniProt P36896)",82
"Aurora kinase B (AURKB, Homo sapiens, UniProt Q96GD4)",98

# Series 2 — target: CEP164, C-terminal peptide (human); technique: DHFR complementation, deep sequencing; sample: yeast; reference: wild type; direction: higher = weaker binding
# Notes: single substitutions, model-inferred values
# Parent: PDZK1, PDZ domain 2 (human); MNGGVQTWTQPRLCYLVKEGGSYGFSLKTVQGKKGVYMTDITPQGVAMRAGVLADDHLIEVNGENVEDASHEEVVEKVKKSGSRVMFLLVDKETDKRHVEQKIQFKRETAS; partner HNRVKVYRF
Variant,binding free energy change [kcal/mol]
L53N,0.406
V66I,-0.291
G45F,1.49
E60S,0.192
F105A,-0.186
S83E,-0.131
E76R,0.0848
F25K,1.69

# Series 3 — cell line: A-375; concentration: 100 µM; time: 18 h
SMILES,viability
CC(=O)Oc1ccc(C(c2ccc(OC(C)=O)cc2)c2ccccn2)cc1,7.97%
COc1cccc2c1C(=O)c1c(O)c3c(c(O)c1C2=O)C[C@@](O)(C(=O)CO)C[C@@H]3O[C@H]1C[C@H](N)[C@@H](O)[C@H](C)O1,76.2%
COc1ccc([C@@H]2CC(=O)c3c(O)cc(O[C@@H]4O[C@H](CO[C@@H]5O[C@@H](C)[C@H](O)[C@@H](O)[C@H]5O)[C@@H](O)[C@H](O)[C@H]4O)cc3O2)cc1O,90%
Cc1nc(Nc2ncc(C(=O)Nc3c(C)cccc3Cl)s2)cc(N2CCN(CCO)CC2)n1,22.5% and 25.7%
N[C@@H](Cc1c[nH]c2ccc(O)cc12)C(=O)O,102%
NS(=O)(=O)c1cc2c(cc1Cl)N=C(CSCc1ccccc1)NS2(=O)=O,82.4%
NC[C@H]1O[C@H](O[C@H]2[C@H](O)[C@@H](O[C@H]3O[C@H](CO)[C@@H](O)[C@H](N)[C@H]3O)[C@H](N)C[C@@H]2N)[C@H](O)[C@@H](O)[C@@H]1O,99.1%

# Series 4 — host: mouse; sample: microsomes or S9; concentration: 2 µM; time: 0.5 h
Compound,remaining compound
C[C@H]1CN2C[C@H](O)CC2CN1Cc1cc2c(cc1Cl)OCO2 (some centres unmarked),26.9%
CCOc1ccc(CCNS(=O)(=O)c2ccc3c(c2)C(C)(C)C(=O)N3)cc1OCC,< 1%
COC(=O)C(OC(C)(C)C)c1cc2c(nc1C)C(=O)NCC2 (centres unmarked),99.3%
COc1ccc(OC)c(NC(=O)C2Cn3cccc3C(=O)N2C)c1 (centres unmarked),13.4%
COC(c1ccc(Cl)cc1)(c1ccc(Cl)cc1)C(Oc1nccc(C)n1)C(=O)O (centres unmarked),84.7%
CC1(C)Cc2c(sc3[nH]c(=O)n(C4CCCCC4)c(=O)c23)CO1,3.43%

# Series 5 — Compound: COc1ccc(Cl)cc1NC(=O)Nc1cc(C)nc2ccccc12; effect on: enzyme activity; mode: inhibitor; concentration: 0.5 µM; reference: control
target,remaining activity [%]
"FER (Homo sapiens, UniProt P16591)",92.4
"MARK3 (Homo sapiens, UniProt P27448)",126
"Insulin receptor (INSR, Homo sapiens, UniProt P06213)",93.2
"NEK11 (Homo sapiens, UniProt Q8NG66)",94.6
"MATK (Homo sapiens, UniProt P42679)",98.2
"FGR (Homo sapiens, UniProt P09769)",92
"LIM domain kinase 1 (LIMK1, Homo sapiens, UniProt P53667)",87.1
"STK25 (Homo sapiens, UniProt O00506)",101
"AKT1 (Homo sapiens, UniProt P31749)",95.8
"PRKX (Homo sapiens, UniProt P51817)",98
"PKN1 (Homo sapiens, UniProt Q16512)",104
"ITK (Homo sapiens, UniProt Q08881)",96
"SRC (Homo sapiens, UniProt P12931)",99
"FLT4 (Homo sapiens, UniProt P35916)",100
"PASK (Homo sapiens, UniProt Q96RG2)",97.6
"HIPK1 (Homo sapiens, UniProt Q86Z02)",97.2
"Cyclin-dependent kinase 3, with cyclin E (CDK3, Homo sapiens, UniProt Q00526)",93.6
"NLK (Homo sapiens, UniProt Q9UBE8)",94.5
"CDC42BPA (Homo sapiens, UniProt Q5VT25)",98.8
"TAOK3 (Homo sapiens, UniProt Q9H2K8)",105
"FYN (Homo sapiens, UniProt P06241)",100
"ALK (Homo sapiens, UniProt Q9UM73)",99.2

# Other studies, line by line
SMILES,cell line,test,endpoint,value
CCC(=O)N1CCN(c2nc(OC[C@@H]3CCCN3C)nc3c2CCN(c2cccc4cccc(Cl)c24)C3)C[C@@H]1CC#N,HEK293 RAS-independent,"cell growth, CellTiter-Glo",IC50,3.2 µM

# Some of these lines once more (series 5):
target,remaining activity [%]
"PASK (Homo sapiens, UniProt Q96RG2)",97.6
"HIPK1 (Homo sapiens, UniProt Q86Z02)",97.2
"Cyclin-dependent kinase 3, with cyclin E (CDK3, Homo sapiens, UniProt Q00526)",93.6
"NLK (Homo sapiens, UniProt Q9UBE8)",94.5
"CDC42BPA (Homo sapiens, UniProt Q5VT25)",98.8
